Results from different studies.
Each line is one published result; not all experiments were run side by side. Numbers after ± are the reported error.

Protein sequences, listed by entry. Tags and fused reporters are not part of them. Residues count along the entry.
UniProt P02769, 25-607 limits assumed: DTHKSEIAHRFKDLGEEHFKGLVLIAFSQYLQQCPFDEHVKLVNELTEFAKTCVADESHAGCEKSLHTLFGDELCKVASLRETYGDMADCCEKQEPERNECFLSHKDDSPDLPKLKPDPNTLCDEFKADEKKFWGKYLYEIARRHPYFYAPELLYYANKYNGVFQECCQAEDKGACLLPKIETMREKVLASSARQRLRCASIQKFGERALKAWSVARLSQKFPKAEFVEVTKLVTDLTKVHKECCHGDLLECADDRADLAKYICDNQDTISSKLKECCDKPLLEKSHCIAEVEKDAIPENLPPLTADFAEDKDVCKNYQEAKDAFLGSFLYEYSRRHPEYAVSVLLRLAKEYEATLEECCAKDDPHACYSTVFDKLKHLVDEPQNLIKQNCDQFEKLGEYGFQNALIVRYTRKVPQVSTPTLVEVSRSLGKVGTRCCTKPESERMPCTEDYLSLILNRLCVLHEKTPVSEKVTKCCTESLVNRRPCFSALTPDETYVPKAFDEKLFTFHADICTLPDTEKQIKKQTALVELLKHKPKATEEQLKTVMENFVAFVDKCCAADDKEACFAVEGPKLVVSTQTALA

Molecule	tested on	assay	system	conditions	scale	endpoint	result
NC12CC3CC(CC(C3)C1)C2	Influenza A virus	viral replication	MDCK, A/Swine/Iowa/9-0805/2009 (H1N1)	–	–	EC50	≤ 100 µM
C[C@H](c1cccc2ccccc12)N1CCC(C(=O)NCc2cccc(F)c2)CC1	SARS-CoV	–	Vero E6	48 h	baseline: CC50 over EC50	therapeutic index	> 18.5
Fc1ccc(CNc2ncnc3ccc(F)cc23)cc1	HEK293-RFP	cell viability	–	–	–	CC50	19.3 µM
CC(C)OP(=S)(OC(C)C)SCCNS(=O)(=O)c1ccccc1	HepaRG	refers to: CYP3A4	–	concentration not given, 24 h	baseline: untreated	mRNA level	> 5 fold
O=C(c1ccc(Cl)cc1)N1CCN(c2ccc3nncn3n2)CC1	Albumin (ALB, Bos taurus, UniProt P02769)	binding, fluorescence quenching	–	pH 7.4	–	IC50	> 100 µM
CC(C)C[C@H](NC(=O)[C@@H]1C[C@@H](O)CN1C(=O)[C@H](Cc1ccccc1)NC(=O)[C@H](CO)NC(=O)[C@H](C)NC(=O)[C@H](Cc1ccccc1)NC(=O)[C@@H](NC(=O)[C@H](CCC(=O)O)NC(=O)[C@H](Cc1c[nH]cn1)NC(=O)[C@@H](NC(=O)[C@@H](NC(=O)[C@H](CCC(N)=O)NC(=O)[C@H](C)NC(=O)[C@@H](N)CC(=O)O)[C@@H](C)O)C(C)C)C(C)C)C(=O)N[C@@H](CC(=O)O)C(=O)N[C@@H](CO)C(=O)N[C@@H](CC(=O)O)C(=O)NCC(=O)N[C@H]1CSSC[C@@H](C(N)=O)NC(=O)[C@H](Cc2ccc(O)cc2)NC(=O)[C@H](Cc2c[nH]cn2)NC(=O)[C@H](CCCCN)NC(=O)CNC(=O)[C@@H]2CSSC[C@H](NC1=O)C(=O)N[C@@H](Cc1c[nH]c3ccccc13)C(=O)N[C@@H](CC(N)=O)C(=O)N1CCC[C@H]1C(=O)N[C@@H](C)C(=O)N2	–	RP-HPLC	mouse serum 25%	50 µM, 6 h, 37 °C	–	remaining peptide	86.2 ± 1.18%
CCOP(=S)(OCC)Oc1nc(Cl)c(Cl)cc1Cl	–	–	male ES1+/+ mice	transdermal, 100 mg/kg, 24 h	–	body temperature	32 °C
CCCSc1nc(N[C@@H]2C[C@H]2c2ccc(F)c(F)c2)c2nnn([C@@H]3C[C@H](OCCO)[C@@H](O)[C@H]3O)c2n1	–	–	STEMI patients, plasma	180 mg loading dose, 2 h, together with: fentanyl	–	plasma concentration	245 ± 391 ng/mL
CSCC[C@@H]1NC(=O)[C@H](CC(C)C)NC(=O)[C@H](CCCNC(=N)N)NC(=O)[C@H](CO)NC(=O)[C@@H]2CSSC[C@@H]3NC(=O)[C@H](CO)NC(=O)CNC(=O)[C@H]([C@@H](C)O)NC(=O)[C@H](CSSC[C@H](N)C(=O)N[C@@H](CCCCN)C(=O)NCC(=O)N[C@@H](CCCCN)C(=O)NCC(=O)N[C@@H](C)C(=O)N[C@@H](CCCCN)C(=O)N2)NC(=O)[C@H](CSSC[C@@H](C(N)=O)NC(=O)[C@H](CCCCN)NC(=O)CNC(=O)[C@H](CO)NC(=O)[C@H](CCCNC(=N)N)NC3=O)NC(=O)[C@H](CC(=O)O)NC(=O)[C@H](Cc2ccc(O)cc2)NC1=O	–	RP-HPLC	water	3 h, 100 °C, heat stability	–	peptide remaining intact	~50%
Pillar[6]MaxQ	HepG2	cell viability, MTS	–	24 h	–	maximum tolerated concentration	≤ 0.1 mM
CCOP(=S)(OCC)Oc1ccc([N+](=O)[O-])cc1	–	–	male ES1−/− mice	subcutaneous, 12.5 mg/kg, 3 h	–	surface body temperature	33 °C
CC[C@H](C)[C@H](NC(=O)[C@H](Cc1ccc(O)cc1)NC(=O)[C@H](CO)NC(=O)[C@H](CCC(=O)O)NC(=O)[C@H](CC(N)=O)NC(=O)[C@H](CC(C)C)NC(=O)[C@H](C)NC(=O)[C@H](CCCCN)NC(=O)[C@@H](NC(=O)[C@@H](NC(=O)[C@H](CCC(N)=O)NC(=O)[C@H](CCC(N)=O)NC(=O)[C@H](CC(C)C)NC(=O)[C@H](CO)NC(=O)[C@H](CC(C)C)NC(=O)[C@H](CCSC)NC(=O)[C@H](CCC(=O)O)NC(=O)[C@H](Cc1ccc(O)cc1)NC(=O)[C@@H](NC(=O)[C@H](CC(C)C)NC(=O)[C@H](CC(=O)O)NC(=O)[C@H](CC(C)C)NC(=O)[C@H](CC(C)C)NC(=O)[C@@H](NC(=O)[C@@H](NC(=O)[C@H](CC(N)=O)NC(=O)[C@@H](NC(=O)[C@H](CCC(N)=O)NC(=O)[C@@H](NC(=O)[C@H](CC(C)C)NC(=O)[C@@H](N)CO)[C@@H](C)O)[C@@H](C)CC)[C@@H](C)O)[C@@H](C)O)[C@@H](C)O)C(C)C)C(C)C)C(=O)N[C@@H](CC(=O)O)C(=O)N[C@@H](CC(C)C)C(=O)N[C@@H](CCCCN)C(=O)N[C@@H](CCC(=O)O)C(=O)N[C@@H](CC(C)C)C(=O)O	MERS-CoV	–	Vero	–	baseline: CC50 over IC50	selectivity index	> 1670
C[C@@H]1NC(=O)[C@@H]2CCCN2C(=O)[C@H](CC(N)=O)NC(=O)[C@H](Cc2c[nH]c3ccccc23)NC(=O)[C@@H]2CSSC[C@H](NC1=O)C(=O)NCC(=O)N[C@@H](CCCCN)C(=O)N[C@@H](Cc1c[nH]cn1)C(=O)N[C@@H](Cc1ccc(O)cc1)C(=O)N[C@H](C(N)=O)CSSC[C@H](NC(=O)CN)C(=O)N2	–	RP-HPLC	mouse serum 25%	50 µM, 6 h, 37 °C	–	degradation to non-isomer products	21.6 ± 0.65%
CNC(=O)Oc1cccc2c1OC(C)(C)C2	–	–	male ES1−/− mice	subcutaneous, 1 mg/kg, 0.5 h	–	surface body temperature	30 to 31 °C
